Assay results pooled from the literature.
Parts stem from different laboratories: compare values within a part only.

Sample 1 — technique: RNA Bind-n-Seq; molecule type: RNA; sample: in vitro; tested at: not given; setting: RNA with constant flanks, ends assumed; baseline: input RNA pool; direction: higher = stronger binding
Target: RING finger protein unkempt homolog, zinc fingers 1-6, GST-SBP tag (UNK, Homo sapiens, UniProt Q9C0B0, residues 30-357)
Sequence of UniProt Q9C0B0 (30-357, looked up): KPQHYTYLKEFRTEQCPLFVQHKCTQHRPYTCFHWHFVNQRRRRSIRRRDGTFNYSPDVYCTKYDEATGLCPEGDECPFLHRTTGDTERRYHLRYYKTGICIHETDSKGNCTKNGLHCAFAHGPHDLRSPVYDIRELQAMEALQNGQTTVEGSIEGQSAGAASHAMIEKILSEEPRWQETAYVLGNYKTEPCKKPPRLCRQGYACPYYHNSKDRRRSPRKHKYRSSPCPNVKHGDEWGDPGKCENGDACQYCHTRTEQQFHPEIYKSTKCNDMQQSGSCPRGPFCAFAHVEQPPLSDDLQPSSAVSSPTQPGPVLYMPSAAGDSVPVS
Constant ends, left off below: GGGAGUUCUACAGUCCGACGAUC … CAACAGAGGAUUGAGCAUCA
Sequence | bound/input enrichment [ratio]
AGUCCUCAACGUGUUCUAGCUUGUGAUCCUUCAAAGAUGGGUUAUGUGUUAAUGACCGGUACCCGAAAUGUUUACUUCUCUCUUUCCACUGAUCAGAGAAACAGGCAUUAAAGACAGAAU | 0.249
AUCCUUUCUGGCACAUCUGACCUACUGCUUACCUUCGAUGAGGCUGAGGUUCGUAAAAUUAUCCGGGUUUGCAAAGGAAUUUUGGAAUAUCUUACAGUGGCAGAGGUAGUGGAAACUAUG | 0.223
AAGAAAAUGCAUAUACAAAGUGCUGUGUCCAAAAUGAACCCUGGGGAGAAAGAACCCAUUCACCGAGGAACUACUGAAGUGAAUAUAGAUUCUGAAACUGUUCAUAGAAUGUUACUGAGU | 0.316
GGUCUCUCCAAACUGACUAUAUAUUUAUUUGUUAUUUUAAAAAUACAACUAUAUUUUGGGCCGUUUUUUUUUUUUUUUUUUUGAUAAGUUGGUGUAAGGCUAUGUGACUUGAUCAAAACA | 2.64
UCAUCUACAUUUGCAAUUCCCCAAGAGCUAGAGAAAAGUGUACAGAUGUUUGAAUUGUUUUACCGCCAGCAUUUCAGUGGACGGAAGCUGACAUGGUUGCAUUAUCUCUGUACAGGUGAA | 0.547
GUCUUCUCUUCUUCCUGUUUGUUCUCCCCGUGUUGUCCUCCUGCUGGCCAAGCGGCCUCUCCGCCGUGGUGGGUUUGGUGAAGGUAUCUUCUCUACCCAGCGCUUGACCUGAGUGGUGUG | 0.355
GGGCGCUCUGCAUCCAGGUGCCAUUCAUCAGAAAAUAAAAAUGUCUCCUUGAACCUAUCCCUCCGGGCCUGCUUCCUGGAAUCCAAGGGACUAGGAACUCUCUGAGUCACAGGACUCCCA | 0.41
UCACCUGUUCAAGAUAUUGAUACCCCAGAGGUUGAUUUAUACCAAUUACAAGUAAAUACACUCCGGAGAUACAAAAGACACUUCAAGCUACCAACCAGACCAGGACUUAAUAAAGCACAA | 0.356

Sample 2 — technique: universal PBM; molecule type: double-stranded DNA, one strand shown; sample: in vitro; tested at: 600 nM; direction: higher = stronger binding
Target: Sal-like protein 4, full length isoform A (SALL4, Homo sapiens, UniProt Q9UJQ4, residues 1-1053)
Sequence of UniProt Q9UJQ4 (whole entry, looked up): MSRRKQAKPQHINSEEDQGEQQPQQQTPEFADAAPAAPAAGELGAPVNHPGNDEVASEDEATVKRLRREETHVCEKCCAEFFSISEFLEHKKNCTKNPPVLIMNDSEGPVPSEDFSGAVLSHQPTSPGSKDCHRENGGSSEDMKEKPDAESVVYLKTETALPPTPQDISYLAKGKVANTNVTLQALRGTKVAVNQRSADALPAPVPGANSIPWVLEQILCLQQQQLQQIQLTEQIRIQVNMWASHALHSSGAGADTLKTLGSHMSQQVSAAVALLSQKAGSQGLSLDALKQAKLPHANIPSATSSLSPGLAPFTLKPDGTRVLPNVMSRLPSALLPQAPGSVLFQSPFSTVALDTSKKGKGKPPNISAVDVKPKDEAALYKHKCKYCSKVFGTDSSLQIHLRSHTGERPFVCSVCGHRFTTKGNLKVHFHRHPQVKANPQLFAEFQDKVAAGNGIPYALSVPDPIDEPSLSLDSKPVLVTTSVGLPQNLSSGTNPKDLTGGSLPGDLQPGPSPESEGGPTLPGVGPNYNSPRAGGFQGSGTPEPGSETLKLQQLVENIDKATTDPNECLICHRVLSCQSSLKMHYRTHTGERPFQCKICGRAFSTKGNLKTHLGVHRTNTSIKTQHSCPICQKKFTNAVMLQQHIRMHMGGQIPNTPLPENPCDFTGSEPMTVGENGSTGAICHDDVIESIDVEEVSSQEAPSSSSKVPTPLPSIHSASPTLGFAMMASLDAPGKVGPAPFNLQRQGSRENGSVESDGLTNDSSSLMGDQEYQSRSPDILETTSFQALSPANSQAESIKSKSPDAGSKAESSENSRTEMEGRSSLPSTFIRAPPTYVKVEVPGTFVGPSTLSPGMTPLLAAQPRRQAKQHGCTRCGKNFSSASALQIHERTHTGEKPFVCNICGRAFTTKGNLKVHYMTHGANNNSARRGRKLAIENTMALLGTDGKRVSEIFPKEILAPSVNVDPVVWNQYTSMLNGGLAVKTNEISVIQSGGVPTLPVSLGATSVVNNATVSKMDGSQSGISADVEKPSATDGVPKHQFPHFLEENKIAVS
Setting: 8-mer, flanks averaged, mean of replicates
Sequence | E-score
CATAAGAG | 0.211
AATTCTCA | 0.25
GGATTAGA | 0.0151
GTATGGTA | 0.116
CTATTTTC | 0.23
AAGCCTCT | -0.123
ACAGACTG | -0.118
TTGAGAAA | 0.279

Sample 3 — technique: two-hybrid; baseline: out of 4 tests; direction: higher = firmer interaction
Partner: ARF20 484-590 (Arabidopsis thaliana, UniProt Q9C7I9)
B1: ARF19 948-1086 (Arabidopsis thaliana, UniProt Q8RYC8); chain GLWPNQTQRMRTYTKVQKRGSVGRSIDVTRYSGYDELRHDLARMFGIEGQLEDPLTSDWKLVYTDHENDILLVGDDPWEEFVNCVQNIKILSSVEVQQMSLDGDLAAIPTTNQACSETDSGNAWKVHYEDTSAAASFNR
B2: ARF14 497-605 (Arabidopsis thaliana, UniProt Q9LQE8); chain SPTEIQSKQFSSTRTCTKVQMQGVTIGRAVDLSVLNGYDQLILELEKLFDLKGQLQARNQWEIAFTNNEEDKMLVGEDPWPEFCNMVKKIFIYSKEEVKNLKSRKSLSS
B3: ARF12 500-593 (Arabidopsis thaliana, UniProt Q9XID4); chain TEIQNKQFSSSRTCTKVQMQGVTIGRAVDLSVLNGYDQLILELEKLFDIKGQLQTRNQWEIAFTDSDEDKMLVGDDPWPEFCNMVKKIFIQKRR
B4: ARF16 570-670 (Arabidopsis thaliana, UniProt Q93YR9); chain SPCSKKVHDASGLETGHCKVFMESDDVGRTLDLSVLGSYEELSRKLSDMFGIKKSEMLSSVLYRDASGAIKYAGNEPFSEFLKTARRLTILTEQGSESVVV
B5: IAA12 (Arabidopsis thaliana, UniProt Q38830); chain MRGVSELEVGKSNLPAESELELGLGLSLGGGAWKERGRILTAKDFPSVGSKRSAESSSHQGASPPRSSQVVGWPPIGLHRMNSLVNNQAMKAARAEEGDGEKKVVKNDELKDVSMKVNPKVQGLGFVKVNMDGVGIGRKVDMRAHSSYENLAQTLEEMFFGMTGTTCREKVKPLRLLDGSSDFVLTYEDKEGDWMLVGDVPWRMFINSVKRLRIMGTSEASGLAPRRQEQKDRQRNNPV
Residues (chain): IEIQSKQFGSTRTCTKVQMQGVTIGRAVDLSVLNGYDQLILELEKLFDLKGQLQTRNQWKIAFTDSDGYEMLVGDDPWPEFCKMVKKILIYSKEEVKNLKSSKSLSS
Molecule | positive tests
B1 (ARF19 948-1086) | 2
B2 (ARF14 497-605) | 0
B3 (ARF12 500-593) | 0
B4 (ARF16 570-670) | 1
B5 (IAA12) | 0

Single results of other studies
SMILES | test system | conditions | endpoint | result
Cc1ccc(-c2nc3n(CC(=O)Nc4cccc(F)c4)c4c(c(=O)n3n2)CCC4)cc1 | mouse, microsomes or S9 | 2 µM, 0.5 h | remaining compound | 19.4%

Excerpt of the above (sample 2):
Sequence | E-score
CTATTTTC | 0.23
AAGCCTCT | -0.123
ACAGACTG | -0.118
TTGAGAAA | 0.279
